Measurements pooled from the literature.
Every numbered part comes from another study and shows a few of its results, in no order. Positions count from the first letter of the parent shown.

Block 1
Target: RNA binding protein fox-1 homolog 2, RRM domain, GST-SBP tag (RBFOX2, Homo sapiens, UniProt O43251-10, residues 100-194)
Method: RNA Bind-n-Seq
Molecule type: RNA
Matrix: in vitro
Tested at: 365 nM
Setting: natural RNA segment, single round, ends assumed
Relative to: no-protein control
Direction: higher = stronger binding
Measurement: RBNS enrichment (R)
All sequences stand within: GGGAGUUCUACAGUCCGACGAUC … UGGAAUUCUCGGGUGCCAA
Target sequence (chain): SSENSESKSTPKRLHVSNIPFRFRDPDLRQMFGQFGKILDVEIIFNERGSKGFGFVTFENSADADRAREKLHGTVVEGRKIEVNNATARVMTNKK
UGUUUUCAUAUUACAGAGUGAAUUUGUAUUUAAACAAAAAUUUAAAUUUUGGAAUCCUCUAAACAUUUUUGUAUCUUUAAUUGGUUUAUUAUUAAAUAAAUCAUAUAAAA: 1.19
GGUACAUUUUUGCACUGAAACCUAAAGAUGUUUUAAAAACACUUUUCACAGAAAUAGUCCUUGUCAUUACAUUGUUCACUCAUGUGUUUGUACAUUUUUGUAUGUUAAUU: 0.597
GCUCAUUGGUUCUGAUUUGCCCACUAAGGGUACAUGUGCGCUUAGUACAUUUGUAAAUACUCAGUUUUGUAUUGUAUGUAUAUGAUUGCUAUUCUCAGAGGUUUGGACUU: 0.447
CCACGUGGCUUCUUCGAUAGGAGCCACAACUUGGGGUGGGAAGAACUUGUCCCUCAGGCUUGUUGCCCUCUGCAGUUGAUCUCCAAAGUUUUAAACCUGUUAAAUUAAUU: 0.25
UGCUCAGUGUGUUGAUACAGAAAAGCUGUUUUUCCUUGUUUGCAGAAGUUGACCAGACAAAGCAAAUGGAGGGGCACCUCUGUGUACCCUCUUCACCUAAGUGUUUAUAA: 0.249
ACACCUAACAUGAGACGUGGCAUGUGAGAUGAGACUUGGCAUGUGAGACAUAGGGUCACUAGAGACCCUUCUGGGUCAGAGGAGAGAGACUGAAUUGGACUAAACCCGUC: 0.862
GCCCUGUUCUUAAAUUACUAGUGAUUCUAGUAGUGACAUCGUUAGUAAUUUAACUCUAUAAUUGCAGUUACAGCAUUUGGUUUUUGCCAUCUAAGAUUUUCUUGGUUUUA: 0.454
CAAAGGGCCACUGACCUGGCAAGCAUUUACUUCUACUUCACCAAAGAUGCCCAGAGUGAUGGGUCAGCCCUUCUGCUCAAGCAGGCCGUGCCUGGCUGGUGCCAUUCAGA: 0.428
UUAGUCCAGCCCAUUGCAGGCAUUCCUGGAACAGGUGAGAGGGUUUCUACUUCCCAUGAAGUAUAUAGGCUUACACUCAUCACCUCGUAAACAAGAACGGGCACAUUUCA: 0.294
UCAGCCAGUCAGUGACUGGUGGGUUUGAAUCUGCACUUAUCCCCACCACCUGGGGACCCCCUUGUUGUGUCCAGGACUCCCCCUGUGUCAGUGCUCUGCUCUCACCCUGC: 0.522
AGACUUUGAAUAGAUCUAGCAAUUGGACAUUAGUAAGCCUAAGUUUUUACAUGAUUGCAUUCCUACAUUCUUGUAAACUUUAAGUAACUACCAUUGCAGUUUGUUCUUUU: 0.35
UGUUUUGCACAGACGUGGGCCUGGGCCUUCUCAGCAGCCGCCUUCUAGUUGGGGGCUAGUCGCUGAUCUGCCGGCUCCCGCCCAGCCUGUGUGGAAAGGAGGCCCACGGG: 0.208

Block 2
Target: Histone acetyltransferase KAT6A, winged helix 2, GST fusion (KAT6A, Homo sapiens, UniProt Q92794, residues 85-181)
Method: protein binding microarray
Molecule type: double-stranded DNA, one strand shown
Matrix: in vitro
Tested at: not given
Setting: 8-mer, flanks averaged, mean of 2 arrays, mostly near background
Relative to: not given
Direction: higher = stronger binding
Measurement: E-score
Construct (chain): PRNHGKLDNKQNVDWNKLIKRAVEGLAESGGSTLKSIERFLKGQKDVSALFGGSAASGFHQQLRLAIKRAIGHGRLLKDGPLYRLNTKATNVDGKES
TGAGGACA: -0.0279
AGTTAGAT: -0.0455
CAAGGTTA: -0.0737
CACTCGAG: 0.128
GTCGCTCA: 0.0186
GCCGTTTA: 0.106
ACCGGTCC: 0.072
ACTCAAGA: -0.0287
GCAGGGAC: 0.0123
ACGAGGAT: -0.0334
CATATGGC: -0.0962
GCGCATGA: -0.0576
CCATGAGG: -0.109
GGTAATGA: -0.078
AAGCAACT: 0.145
GTCGATAA: -0.228
CTTGCAAG: 0.288

Block 3
Target: CCNE1, cyclin fold, Cln2 fusion (human)
Method: yeast growth competition, sequencing
Matrix: yeast
Setting: strong parent motif
Relative to: not given
Direction: higher = stronger binding
Measurement: normalised enrichment score
Parent: PPP1R3F docking peptide (human); VAPRRVLFADEAL
VAPRRVLFADAAL [E11A]: 2.25
VAPRRVLFAAEAL [D10A]: 1.94
AAPRRVLFADEAL [V1A]: 2.45
VAPRKVLFADEAL [R5K]: 1.35
VAPARVLFADEAL [R4A]: 1.94
VAPRRVLAADEAL [F8A]: -0.673

Block 4
Target: Fragile X messenger ribonucleoprotein 1, C-terminal low-complexity region (Fmr1, Mus musculus, UniProt P35922)
Method: RNA Bind-n-Seq
Molecule type: RNA
Matrix: in vitro
Tested at: 200 nM
Setting: whole 134-nt RNA, ends assumed
Added: 150 mM LiCl
Relative to: input library
Direction: higher = stronger binding
Measurement: log2 enrichment
All molecules: 7-deaza-guanosine replaces G
All sequences stand within: GGGAGUUCUACAGUCCGACGAUC … UGGAAUUCUCGGGUGUCAAGG
GCAGGAAGUAAAAACAAAUGGAAAUGCUUCGGAUAGUGGUAGGGGUGGGGGUUGCUAAGGAAAGGGUGGGAUGGGAGUGGGUAAAGAGUU: 1.74
AGUCCUGUGCUACACAUCGUAUGUACCGAAUCGGGUUUUGGGGUUUUGGGUUUUGGGAAAGUAUUAUGUUACGCCGUUCGGAUCUGCACU: -1.62
UCCUGUGCUACACAUCGUAUGUACCGAAUCGGAAAAAAAGGUUUUUUUGGAAAAAAAGGAAAGUAUUAUGUUACGCCGUUCGGAUCUGCA: -2.27
CCUGUGCUACACAUCGUAUGUACCGAAUCGGGAAAAAAAGGGUUUUUUUGGGUUUUUGGGAAAGUAUUAUGUUACGCCGUUCGGAUCUGC: -2.89
CUCAAGUCCUGUGCUACACAUCGUAUGUACCGAAUCGGUUGGGGUUGGUUGGGGAAAGUAUUAUGUUACGCCGUUCGGAUCUGCACUUCC: -0.599
CAAGUCCUGUGCUACACAUCGUAUGUACCGAAUCGGUUUGGAAAGGAAAAAAAGGAAAGUAUUAUGUUACGCCGUUCGGAUCUGCACUUC: -0.862
UAACUUUAGAGGAGGAUCUGAUGGAUAUGGCAGUGGACGUGGAUAUGGGGAUGGCUAUAAUGGGUAUGGAGGAGGACCUGGAGGUGGCAA: 0.529
UUGACUAUAUUGUGGAGUAUGACUAUGAUGCUGUACAUGAUGAUGAAUUAACUAUUCGAGUUGGAGAAAUCAUCAGGAAUGUGAAAAAGC: -2.62
CUCAAGUCCUGUGCUACACAUCGUAUGUACCGAAUCGGGGCGGGGCGGGCGGGGAAAGUAUUAUGUUACGCCGUUCGGAUCUGCACUUCC: -0.58
UUUGCAGGAUUAAUCACUCCUGAAGAUCGGAAAUAUGGAACAACAAAUCUUCACUUAGAUGUAUCUGAUGCAGCUAAUGUCAUGGUCUAU: -2.67
UAUAUUGAGGUAUAGAGCUAUUCUUUGUAGGUACCCUGGUGAGACCGAUACAAAUAUGCCCCUCCCCAUAAUGGAAUACUAAUUUUUAUU: 1.04

Block 5
Target: Sal-like protein 4, full length isoform A (SALL4, Homo sapiens, UniProt Q9UJQ4, residues 1-1053)
Sequence of UniProt Q9UJQ4 (whole entry, looked up): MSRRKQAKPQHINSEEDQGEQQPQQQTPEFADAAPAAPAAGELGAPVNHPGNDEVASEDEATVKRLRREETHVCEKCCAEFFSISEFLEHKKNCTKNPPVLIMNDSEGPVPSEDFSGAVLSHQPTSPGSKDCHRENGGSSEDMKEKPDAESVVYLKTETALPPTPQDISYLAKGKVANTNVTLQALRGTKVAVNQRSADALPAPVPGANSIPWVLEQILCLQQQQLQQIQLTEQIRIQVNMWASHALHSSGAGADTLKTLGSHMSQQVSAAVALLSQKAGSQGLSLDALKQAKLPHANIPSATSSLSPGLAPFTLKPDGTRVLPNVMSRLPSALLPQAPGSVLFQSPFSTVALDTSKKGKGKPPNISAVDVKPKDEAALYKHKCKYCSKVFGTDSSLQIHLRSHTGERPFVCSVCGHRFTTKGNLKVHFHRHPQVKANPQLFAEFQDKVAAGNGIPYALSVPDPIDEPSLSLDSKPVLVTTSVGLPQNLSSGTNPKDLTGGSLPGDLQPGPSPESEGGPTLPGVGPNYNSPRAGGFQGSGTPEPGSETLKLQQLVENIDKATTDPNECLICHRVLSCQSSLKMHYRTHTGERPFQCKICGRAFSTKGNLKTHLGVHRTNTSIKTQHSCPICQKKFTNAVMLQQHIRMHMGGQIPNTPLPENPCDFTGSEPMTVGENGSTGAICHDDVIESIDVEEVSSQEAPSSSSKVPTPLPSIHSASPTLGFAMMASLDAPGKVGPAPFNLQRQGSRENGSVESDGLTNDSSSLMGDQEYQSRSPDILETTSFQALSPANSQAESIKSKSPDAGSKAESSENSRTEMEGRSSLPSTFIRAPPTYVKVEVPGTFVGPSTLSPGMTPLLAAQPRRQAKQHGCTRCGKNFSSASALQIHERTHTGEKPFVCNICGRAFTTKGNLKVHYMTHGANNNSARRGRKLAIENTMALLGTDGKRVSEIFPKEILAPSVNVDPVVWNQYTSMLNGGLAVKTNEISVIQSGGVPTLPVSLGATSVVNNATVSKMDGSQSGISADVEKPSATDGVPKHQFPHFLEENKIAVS
Method: universal PBM
Molecule type: double-stranded DNA, one strand shown
Matrix: in vitro
Tested at: 600 nM
Setting: 8-mer, flanks averaged, mean of replicates
Direction: higher = stronger binding
Measurement: E-score
CGTTGGCC: -0.27
CCGCGTAC: -0.196
GAAGCGGA: -0.199
CTGGGCTC: -0.3
AAGTTAAA: 0.212
AGAATCCT: -0.0668
AATGAGCC: -0.104
TCAGACAA: 0.043
GCCGTAAA: -0.0469
CGGGGTCC: -0.413
GTCACGGA: -0.208
GAGGCTAC: -0.336
CCGCCTGA: -0.376
TAACGTAA: 0.214
GCAAACGA: 0.135
GTTAGCGA: 0.172
ACGTGCGG: -0.191
AGAGACGG: -0.17
ATGATACC: 0.174

Block 6
Target: RING finger protein unkempt homolog, zinc fingers 1-6, GST-SBP tag (UNK, Homo sapiens, UniProt Q9C0B0, residues 30-357)
Method: RNA Bind-n-Seq
Molecule type: RNA
Matrix: in vitro
Tested at: not given
Setting: RNA with constant flanks, ends assumed
Relative to: input RNA pool
Direction: higher = stronger binding
Measurement: bound/input enrichment
All sequences stand within: GGGAGUUCUACAGUCCGACGAUC … CAACAGAGGAUUGAGCAUCA
Target sequence (chain): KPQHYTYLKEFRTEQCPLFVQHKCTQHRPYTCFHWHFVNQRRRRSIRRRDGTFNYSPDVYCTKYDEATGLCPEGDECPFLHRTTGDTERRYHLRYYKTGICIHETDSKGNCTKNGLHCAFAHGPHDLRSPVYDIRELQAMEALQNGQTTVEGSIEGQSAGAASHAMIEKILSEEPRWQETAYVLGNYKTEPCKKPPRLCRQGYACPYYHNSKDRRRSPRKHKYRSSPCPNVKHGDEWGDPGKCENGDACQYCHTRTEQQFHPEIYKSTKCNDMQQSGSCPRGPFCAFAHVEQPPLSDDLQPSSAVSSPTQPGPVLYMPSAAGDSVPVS
CAAAUCCUAGAGAGCCUUUCCACGUCUCCUCUGGCCGAGCCCCCCCACUUUGUUGAACAUAUCCGAUCUACCUUGAUGUUUUUAAAAAAAUUCCCAUCUCCAGAGAAUAUACUCUUUCCU: 1.05 ratio
GAUUCUUAUAUCAAAGCAGAUGAUCCUUCCUCCUACAUGGAAGUUGUUCAGGCUGCCAAUACCCGUGGAAACUGGGAAGAACUGGUGAAGUACUUGCAGAUGGCCCGUAAGAAGGCUCGA: 0.0735 ratio
CCAGAUACAAUAGAAAGUGAACCCAGCACAGCAGAUACCGUUGUUCCAAUCACUUGUGCUACCGAUUCUACAGCUGAUCCACAGGUUAGCUUCAACUCUAAUUACAUUGAUAUAGAAAGU: 0.749 ratio
GAGCAUAAAGCUGAGAAAGUCCCAGCCGUAGCUAACUACAUUAUGAAAAUACACAAUUUUACCCGCAAAUGCCUCUACUGUAAUCGCUAUUUGCCUACAGAUACCCUACUCAACCAUAUG: 1.36 ratio
CCCUCCCCGGGCCACCCACCCCUCCCGGCUCCCCGCCGAGAUCCAGGUUUCUUCUUAUUUCACCGCAAAUAAGAAAAAUGUUCUACGCACAUUUUGUCCUCAGUAAACGAGGGCCUCUGG: 1.74 ratio
GCAACCAAAGAUGUACAUAAAGGAGAGUCUGGAAGCCAGGAAGGGGGGGUAAAUAGUUUCCGUACCUUAAUUGGCCUCCCUUCAACCUCAGCUGUUACUUCACAGCCUAAAAGCUUUGAA: 0.181 ratio
AUAAUGUGUGUGGCUGGUAUUGGACUUGUUGUAUUAUUCUUCAGUUGGAUGCUCUCUAUUUUCCGAUCUAAAUAUCAUGGCUACCCAUACAGCUUUCUGAUGAGUUAAAAAGGUCCCAGA: 0.212 ratio

A few entries again (block 6):
CAAAUCCUAGAGAGCCUUUCCACGUCUCCUCUGGCCGAGCCCCCCCACUUUGUUGAACAUAUCCGAUCUACCUUGAUGUUUUUAAAAAAAUUCCCAUCUCCAGAGAAUAUACUCUUUCCU: 1.05 ratio
GAUUCUUAUAUCAAAGCAGAUGAUCCUUCCUCCUACAUGGAAGUUGUUCAGGCUGCCAAUACCCGUGGAAACUGGGAAGAACUGGUGAAGUACUUGCAGAUGGCCCGUAAGAAGGCUCGA: 0.0735 ratio
CCAGAUACAAUAGAAAGUGAACCCAGCACAGCAGAUACCGUUGUUCCAAUCACUUGUGCUACCGAUUCUACAGCUGAUCCACAGGUUAGCUUCAACUCUAAUUACAUUGAUAUAGAAAGU: 0.749 ratio
GAGCAUAAAGCUGAGAAAGUCCCAGCCGUAGCUAACUACAUUAUGAAAAUACACAAUUUUACCCGCAAAUGCCUCUACUGUAAUCGCUAUUUGCCUACAGAUACCCUACUCAACCAUAUG: 1.36 ratio
CCCUCCCCGGGCCACCCACCCCUCCCGGCUCCCCGCCGAGAUCCAGGUUUCUUCUUAUUUCACCGCAAAUAAGAAAAAUGUUCUACGCACAUUUUGUCCUCAGUAAACGAGGGCCUCUGG: 1.74 ratio
GCAACCAAAGAUGUACAUAAAGGAGAGUCUGGAAGCCAGGAAGGGGGGGUAAAUAGUUUCCGUACCUUAAUUGGCCUCCCUUCAACCUCAGCUGUUACUUCACAGCCUAAAAGCUUUGAA: 0.181 ratio
AUAAUGUGUGUGGCUGGUAUUGGACUUGUUGUAUUAUUCUUCAGUUGGAUGCUCUCUAUUUUCCGAUCUAAAUAUCAUGGCUACCCAUACAGCUUUCUGAUGAGUUAAAAAGGUCCCAGA: 0.212 ratio
